# Experimental data gathered from unrelated publications.
# Numbers after ± are the reported error.
SMILES,target,test,system,setting,how to read,measurement,result
C[C@@H](O)[C@H](NC(=O)[C@H](CO)NC(=O)[C@H](CO)NC(=O)[C@@H](N)CCCCN)C(=O)N[C@@H](CCCNC(=N)N)C(=O)NCC(=O)N[C@@H](CCCNC(=N)N)C(=O)N[C@@H](CCCCN)C(=O)N[C@@H](CO)C(=O)N[C@@H](CO)C(=O)N[C@@H](CCCNC(=N)N)C(=O)N[C@@H](CCCNC(=N)N)C(=O)N[C@@H](CCCCN)C(=O)N[C@@H](CCCCN)C(=O)O,MRGPRX2 human,"degranulation, agonist, measured: β-hexosaminidase",LAD2,,relative to: total,maximal release,~40%
Cc1cc(C)nc(NC(=S)N2CCN(Cc3ccc(C(F)(F)F)cc3)CC2)c1,PHGDH human C234S,,,,relative to: C234S over wild type,potency loss fold,~3 fold
N=C(N)NCCC[C@H](N)C(=O)N1CCC[C@H]1C(=O)N[C@@H](CCCCN)C(=O)N1CCC[C@H]1C(=O)N[C@@H](CCC(N)=O)C(=O)N[C@@H](CCC(N)=O)C(=O)N[C@@H](Cc1ccccc1)C(=O)N[C@@H](Cc1ccccc1)C(=O)NCC(=O)O,"MRGPRX2, human","Ca2+ mobilization, agonist, Fura-2",LAD2 IgE-sensitized,37 °C,,EC50,11 µM
CCN(CC)CCCC(C)Nc1cc[n+]([Ru-]([Cl])[Cl])c2cc(Cl)ccc12.Cc1ccc(C(C)C)cc1 (centres unmarked),calf thymus DNA,thermal denaturation,,"0.5 equivalents per DNA, 1 h, pH 7.39, 25 °C, 25 mM NaClO4",,delta Tm,5.5 °C
Nc1nc2ccc3ccccc3c2s1,"MeAIB/glutamine transporter, rat",MeAIB uptake,"hippocampal neurons, rat","20 µM, added: [14C]MeAIB 23.4 µM",,inhibition,> 90%
COC(=O)c1cnc(-c2cnccn2)cc1C(=O)OC.COC(=O)c1cnc(-c2cnccn2)cc1C(=O)OC.O.O.O.O=S(=O)([O-])C(F)(F)F.O=S(=O)([O-])C(F)(F)F.[Cu+2],calf thymus DNA,ethidium bromide displacement,,,,binding constant,42.2 M⁻¹
CCOc1ccc(-c2nc3cc(-c4nc5cc(N6CCN(C)CC6)ccc5[nH]4)ccc3[nH]2)cc1,HIV-1 nucleocapsid protein-RNA NC•SL2 complex,ESI-FTMS,,"0.35 to 17.5 µM, added to preformed complex",,NC-RNA complex dissociation,no effect
CC[C@H](C)[C@H](NC(=O)[C@@H]1CCCN1C(=O)[C@H](CCCCN)NC(=O)[C@H](CO)NC(=O)[C@H](CO)NC(=O)[C@H](Cc1ccc(O)cc1)NC(=O)[C@H](CO)NC(=O)[C@H](C)NC(=O)[C@H](CO)NC(=O)[C@@H](N)Cc1ccccc1)C(=O)N[C@@H](CCC(N)=O)C(=O)N[C@H](C(=O)N[C@@H](CCC(N)=O)C(=O)N[C@H](C(=O)N[C@@H](CO)C(=O)N[C@@H](CC(N)=O)C(=O)NCC(=O)N[C@@H](CCSC)C(=O)N[C@@H](CC(=O)O)C(=O)N[C@@H](CC(N)=O)C(=O)N[C@@H](C)C(=O)N[C@@H](CO)C(=O)N[C@@H](C)C(=O)N1CCC[C@H]1C(=O)N[C@H](C(=O)O)C(C)C)C(C)C)[C@@H](C)O,"PCY1 peptide cyclase, Saponaria vaccaria","substrate, LC-MS",,"200 µM, pH 8.5, 30 °C, added: PCY1 3.6 µM",,time to complete macrocyclization,> 3 h
COc1cccc(/C=C/C(=O)c2cccc3ccccc23)c1OC,TNF-alpha (mouse),ELISA,RAW264.7,"10 µM, 2 h pretreatment, added: LPS 0.5 µg/mL for 22 h",relative to: LPS alone,inhibition,89%
Cc1cc(N)c2cc(NC(=O)C(=O)Nc3ccc4nc(C)cc(N)c4c3)ccc2n1,unfractionated heparin,"heparin neutralization, factor Xa chromogenic",,"added: heparin 0.2 IU/mL, antithrombin III",,IC50,1200 ± 40 nM
OB1c2sccc2C=NN1Cc1ccccc1,human pancreatic chymotrypsin,"enzyme activity, inhibitor",,100 µM,,inhibition,inactive
O=S([O-])c1ccccc1N=Cc1ccccc1[O-].[Cu+2].c1c[nH]cn1,caspase-3 (human),,HeLa,"2 µM, 24 h",relative to: untreated,caspase-3 activity,~1.5 fold
CCN(CC)CCCC(C)NCc1nn2c(-c3ccccc3)nnc2s1 (centres unmarked),c-Myc (human),western blot,MV4-11,12.5 µM,,protein level,decreased
CCNS(=O)(=O)c1ccc(COc2ccc3nc4ccc(=O)cc-4oc3c2)cc1,human DDR1 L96F/A98T,,HEK293,"concentration not given, 4 h, added: collagen I 30 µg/mL",,DDR1 phosphorylation,decreased
O=C(C1CCCCC1)N1CC(=O)N2CCc3ccccc3[C@@H]2C1,flatworm TRPM_PZQ channel orthologs,,,,relative to: most over least sensitive ortholog,selectivity ratio,~330 fold
CCOC(=O)[C@]1(c2ccccc2)N=C(c2ccc(OC)cc2)N(Cc2ccccc2)[C@@H]1c1ccc(NCc2ccccc2)cc1,GFP-ODC,AlphaLISA,HEK293T stably expressing GFP-ODC,,,IC50,10000 nM
O=C([O-])CN1CCN(CC(=O)[O-])CCN(C(CCC(=O)NC(Cc2c[nH]c3ccc(O)cc23)C(=O)NCCc2c[nH]c3ccc(O)cc23)C(=O)O)CCN(CC(=O)[O-])CC1.[Gd+3] (centres unmarked),myeloperoxidase,MR imaging,mice CFA inflammation,60 min,relative to: MPO-Gd,activation ratio,~2 fold
Cc1cn(-c2ccc(-c3cc(C)c(N[C@@H](C)c4ccc(F)cc4)nn3)nc2O[11CH3])cn1,presenilin-1 gamma-secretase,PET-CT,"female 5XFAD mice, 10 weeks, whole brain",intravenous,relative to: 5XFAD over wild type,brain uptake ratio,2.3 fold
Cc1cccc(C)c1NC(=O)[C@H]1CCCN1Cc1ccccc1,Nav1.4 sodium channel,vaseline gap voltage clamp,Pelophylax lessonae skeletal muscle,30 µM,,shift of steady-state inactivation,14.4 ± 2.7 mV
CC[C@H](C)[C@@H]1NC(=O)[C@H](Cc2ccc(O)cc2)NC(=O)[C@@H](N)CSSC[C@@H](C(=O)N2CCC[C@H]2C(=O)N2CCC[C@H]2C(=O)NCC(N)=O)NC(=O)[C@H](CC(N)=O)NC(=O)[C@H](CCC(N)=O)NC1=O,"vasopressin V1a receptor, Callithrix jacchus","membrane hyperpolarization, FLIPR membrane potential",CHO transfected with receptor,,,IC50,0.0683 nM
Cc1ccc(C(C)C)cc1.[C-]#[O+].[C-]#[O+].[C-]#[O+].[Cl-].[Cl-].[Cl-].[Re+].[Ru+2].c1cnc(-c2ncccn2)nc1,calf thymus DNA,ethidium bromide displacement,,"DNA 120 µM, 50% quenching, added: ethidium bromide 8 µM",,apparent binding constant,2e+06 M⁻¹
CC(=O)[C@@]1(O)CC[C@H]2[C@@H]3CCC4=CC(=O)CC[C@]4(C)[C@H]3CC[C@@]21C,GPR126 N terminus to ECL1 S1,conformational change,,,,BRET signal,no effect
Nc1nc2ccc(Cc3ccccc3)cc2s1,"MeAIB/glutamine transporter, rat",MeAIB uptake,"hippocampal neurons, rat","20 µM, added: [14C]MeAIB 23.4 µM",,inhibition,> 90%
Cc1c(C)c(C)[c-](C)c1C.[C-]#[O+].[C-]#[O+].[C-]#[O+].[Cl-].[Cl-].[Cl-].[Ir+3].[Re+].c1cnc(-c2ncccn2)nc1,calf thymus DNA,ethidium bromide displacement,,,,Stern-Volmer constant,18000 M⁻¹
Cc1sc2ncn(CC(=O)N3CCCC3)c(=O)c2c1-c1cccc(Br)c1,NMDA receptor mouse,patch clamp,cultured cortical neurons,50 µM,relative to: vehicle,total current increase,3.17 fold
Nc1nc2ccc(Oc3ccccc3)cc2s1,"MeAIB/glutamine transporter, rat",MeAIB uptake,"hippocampal neurons, rat","20 µM, added: [14C]MeAIB 23.4 µM",,inhibition,> 90%
CCc1nc(-c2ccc(-c3ccc(CCC(N)(CO)COP(=O)(O)O)cc3)cc2)co1 (centres unmarked),human S1P1 receptor,flow cytometry,CHO expressing human S1P1,"500 nM, 1 h",,receptor internalization,59%
O=c1[nH]sc2ccccc12,HDAC isoforms other than HDAC6,,,concentration not given,,inhibition,no effect
O=C(/C=C/c1ccccc1)OCCCC[P+](c1ccccc1)(c1ccccc1)c1ccccc1,"superoxide dismutase, rat liver mitochondria",,,"10 µM, 15 and 30 min",,SOD activity,no effect

# A few entries again:
SMILES,target,test,system,setting,how to read,measurement,result
C[C@@H](O)[C@H](NC(=O)[C@H](CO)NC(=O)[C@H](CO)NC(=O)[C@@H](N)CCCCN)C(=O)N[C@@H](CCCNC(=N)N)C(=O)NCC(=O)N[C@@H](CCCNC(=N)N)C(=O)N[C@@H](CCCCN)C(=O)N[C@@H](CO)C(=O)N[C@@H](CO)C(=O)N[C@@H](CCCNC(=N)N)C(=O)N[C@@H](CCCNC(=N)N)C(=O)N[C@@H](CCCCN)C(=O)N[C@@H](CCCCN)C(=O)O,MRGPRX2 human,"degranulation, agonist, measured: β-hexosaminidase",LAD2,,relative to: total,maximal release,~40%
Cc1cc(C)nc(NC(=S)N2CCN(Cc3ccc(C(F)(F)F)cc3)CC2)c1,PHGDH human C234S,,,,relative to: C234S over wild type,potency loss fold,~3 fold
N=C(N)NCCC[C@H](N)C(=O)N1CCC[C@H]1C(=O)N[C@@H](CCCCN)C(=O)N1CCC[C@H]1C(=O)N[C@@H](CCC(N)=O)C(=O)N[C@@H](CCC(N)=O)C(=O)N[C@@H](Cc1ccccc1)C(=O)N[C@@H](Cc1ccccc1)C(=O)NCC(=O)O,"MRGPRX2, human","Ca2+ mobilization, agonist, Fura-2",LAD2 IgE-sensitized,37 °C,,EC50,11 µM
